Measured values of several laboratories.
Numbered parts are unrelated; each lists some results of a single study.

Series 1
Target: Hepatocyte nuclear factor 3-alpha (Foxa1, Mus musculus, UniProt P35582, residues 1-468, full length assumed)
Method: EMSA with sequencing
Form: double-stranded DNA, one strand shown
Matrix: in vitro
Concentration: 10 and 20 nM
Setting: whole designed probe, mean of two concentrations, ends assumed
Baseline: negative control set to 0
Reading: higher = stronger binding
Construct (chain): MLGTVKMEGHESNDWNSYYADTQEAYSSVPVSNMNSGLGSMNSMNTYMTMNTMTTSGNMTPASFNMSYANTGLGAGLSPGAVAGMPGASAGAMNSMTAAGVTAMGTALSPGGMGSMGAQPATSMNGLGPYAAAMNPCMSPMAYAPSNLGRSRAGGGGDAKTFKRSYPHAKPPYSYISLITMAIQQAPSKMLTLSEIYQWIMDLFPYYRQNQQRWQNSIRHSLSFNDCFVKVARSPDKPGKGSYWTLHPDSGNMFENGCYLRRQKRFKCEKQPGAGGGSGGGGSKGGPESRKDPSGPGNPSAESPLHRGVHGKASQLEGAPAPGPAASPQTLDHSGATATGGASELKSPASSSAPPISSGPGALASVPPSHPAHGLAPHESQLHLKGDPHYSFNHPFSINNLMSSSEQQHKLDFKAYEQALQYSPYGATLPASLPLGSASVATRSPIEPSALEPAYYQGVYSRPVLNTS
| Strand | normalised bound fraction [ratio] |
| --- | --- |
| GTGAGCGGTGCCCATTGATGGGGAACATCCACGAACCTGGCCCTGTCTGGTAACCACAGTGAACCATCGCAAGATACAGCACTATGTGCCCAGTTGGGCTGGTAATGTCACACAAATGTGTCAACACTGGCACATCCTCAGGGACACGGATAATGACTCACTTTTGGAGAGGGACTAGACCTTCATCCTTGAGGTGAAGAAGATTTTCTCTCCAGGGTGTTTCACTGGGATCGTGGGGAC | 0.0487 |
| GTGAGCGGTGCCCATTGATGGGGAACATCTTCCCCCTCTTCCTTGCCCCACCAGCTCACCTTCCCGGGTTATTTGCAGATAGGAAAATAAATAAAGCCGGCATTCGTTAACCCTCTTCTGGCGCAAACTGCTGTTTGCTCTGGATGAATCATGGTCCTTTGGCGACGCCAGGCTCCGGGAGAGCAAAGCACCGTGGGTCCCGAGAATCGGCTGGTGGCCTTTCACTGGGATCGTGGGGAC | 0.337 |
| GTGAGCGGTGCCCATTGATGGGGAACTCAAGTTTCATGGTCATTTCAGGAAAAAATTTCCATTAATAAAATGCAAATGAATACACCTGGGTGTCTCATTTACAAATAAATTTCTCGTTGATGTTTACTTTGTTTTTATATTCTTGCAAGGTTAAAAAGTTACCGTTTCTTGAATATTCCTTATTAATTTTTCTAGACATCAATTAATTTGTTGAATAGATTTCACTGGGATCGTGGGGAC | 0.347 |
| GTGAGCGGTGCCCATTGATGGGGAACATCTTCCCCCTCTTCCTTGCCCCACCAGCTCACCTTCCCGGGTTATTTGCAGATAGGAAAATAAATAAAGCCGGCATTCGTTAATTCTCCCGTCGCGCAAACTGCTGTTTGCTCTGGATGAATCATGGTCCTTTGGCGACGCCAGGCTCCGGGAGAGCAAAGCACCGTGTCAGGGCCATGATCCGGGGTGGCCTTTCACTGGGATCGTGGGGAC | 0.364 |
| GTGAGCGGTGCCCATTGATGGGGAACAAAAATTTTAGTCTGGATTGATGTTAGGAAATACAATATCTAAGCAATTTGATGTTAAGTTCATCTTGACAGCTTTTAAGACAGAAAATATAAGATTACTTAGAAAATCAACAGAAAAAAATTGCTCTGTTTCTTATCTGACATGAGTCAAAACACGGAATTTTAAATTACATTAAGCTGTGAAATAAAACTGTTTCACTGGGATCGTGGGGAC | 0.0362 |

Series 2
Target: RNA binding protein fox-1 homolog 2, RRM domain, GST-SBP tag (RBFOX2, Homo sapiens, UniProt O43251-10, residues 100-194)
Method: RNA Bind-n-Seq
Form: RNA
Matrix: in vitro
Concentration: 365 nM
Setting: natural RNA segment, single round, ends assumed
Baseline: no-protein control
Reading: higher = stronger binding
Target sequence (chain): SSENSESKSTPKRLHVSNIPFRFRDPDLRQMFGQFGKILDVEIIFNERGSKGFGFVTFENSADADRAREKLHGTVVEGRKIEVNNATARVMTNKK
| Strand | RBNS enrichment (R) |
| --- | --- |
| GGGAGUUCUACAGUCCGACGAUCUUAUGCUUGUUGUACCUUUAAAGUAUGCCUUAUGUACAUUCCUUUCUCCUUUUCCUGCCUCCUCCCUAAAUAGCUGCCUUCUAGUGCUGUAGCAAGGGAGCCCUACUGCAUGGAAUUCUCGGGUGCCAA | 1.84 |
| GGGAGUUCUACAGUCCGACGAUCCAGAUUGGAAGAAUGGACUCUAAGGAGGCUGUUUGCACAAGGCUCUCCACUCACCAGCUGUUGAGUCUGUGCGGAAGACAGGAUCUUAUUACUUCAAUGGCAGCAGCGAUUGGAAUUCUCGGGUGCCAA | 0.252 |
| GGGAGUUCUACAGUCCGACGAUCUUCAAGUGCCCAGAGUGCGGCAAGCGCUUCGGCCAGAGCUCAGUUCUGGCCAUCCAUGCCCGCACCCACCUGCCAGGCCGCACGUACAGCUGCCCCGAUUGUGGCAAGACUGGAAUUCUCGGGUGCCAA | 0.326 |
| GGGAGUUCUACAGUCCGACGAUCGGGCAGGAGUUGGAAUUAGUUGGUCCCUACUGUCCCCCAUGAGGUUGUGAACCCCUCCCCCCAACUUUUCAUGUUUCUUAAAGGCAUUUUGGUUUUUUAAAAUCUGUACAUGGAAUUCUCGGGUGCCAA | 0.538 |
| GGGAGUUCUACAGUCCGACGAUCAUCCAGACAAGAAAUCAACAUGCUAUCAAGAACCAGGUUGAAGCAAAACUGAAAGUGUGUGAUAUUUUUGUUGACGUUAUUUAUAAAAAUAUUUCAACGCUGUCAAUAAUUGGAAUUCUCGGGUGCCAA | 0.533 |
| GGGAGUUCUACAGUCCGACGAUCUGUUAAAAAUUGUACUGAUGUUUUAAACUCGUAACUAUACCACCCUUCUCACUGGUGUAUUUUGAAAACCACCACAGUCCGAUGUCCUGUGCCAUGUCUGUCAUUCCUGUUGGAAUUCUCGGGUGCCAA | 0.306 |
| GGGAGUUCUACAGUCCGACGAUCGUGAGCAUCGCAGUAGCCAGCCACAGAAGCUAACAAGCCUUGAACCACUCUGGUGGCCACACAGCGCCUCAGAGAGCAUUCUGGGAAGUGCCUGUUUCCGAGGAACCCUGUGGAAUUCUCGGGUGCCAA | 0.345 |
| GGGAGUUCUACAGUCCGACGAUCAUUUUAGAAAAAGAAGCUUAAUCUAACGUUUUCAAACACAAGGUCUCUUACAGGUAUAGUUCCGUGAUUAUGAUAGCUCUGUGAUUAUAAGCAACAUCCCCGCCCCCUCUUGGAAUUCUCGGGUGCCAA | 0.395 |

Series 3
Target: Interferon regulatory factor 5, full length, phosphomimetic (IRF5, Homo sapiens, UniProt Q13568-2, residues 1-514, S451D/S453D/S456D/S462D)
Method: protein-binding microarray
Form: double-stranded DNA, one strand shown
Matrix: in vitro
Concentration: 940 nM top
Setting: 60-bp whole probe
Together with: salmon DNA 0.4 mg/ml
Baseline: random background probes
Reading: higher = stronger binding
Shared flanks, not repeated: GCCTAGCAC … GTCTTGATTCGCTTGACGCTGCTG
| Strand | fitted relative affinity [z-score] |
| --- | --- |
| GACGATCTGAGTTTCGAGACGTGCTAG | 3.35 |
| TTAGGACTGCTTCTGCTTTAGTGCTAG | -0.256 |
| GTGATCCGTCCGCCTCAGCCGTGCTAG | -0.164 |
| TTAGGTTTCCTAGTGCTTTAGTGCTAG | 0.468 |
| GACGGTTTCGGGTTTCGGGATGTGCTA | 8.99 |
| GACGGTCTCAGTTTCGAGACGTGCTAG | 4.67 |
| TTAGATATCAGATTGGATTAGTGCTAG | -0.243 |
| GGATGACTCCCTCTCTGGCCGTGCTAG | 0.0938 |
| GACGGACTGCCTCTCCTGACGTGCTAG | -0.338 |
| TTAGGTTTGCTACTGCTTTAGTGCTAG | -0.225 |
| TCACTTCTAGACTTCTCACTGTGCTAG | 0.751 |
| TTAGGTATCGGTGTCGGTTAGTGCTAG | 8.4 |
| TTAGGCCTGCTACTGCTTTAGTGCTAG | -0.491 |
| GACGGTATCGGCTATCGGGACGTGCTA | 5.06 |
| GACGATATCAGACTGGCGACGTGCTAG | -0.233 |
| TGACCTGCTCCAAACACCTCGTGCTAG | 0.279 |

Series 4
Target: Histone acetyltransferase KAT6A, winged helix 1, GST fusion (KAT6A, Homo sapiens, UniProt Q92794, residues 1-85)
Method: protein binding microarray
Form: double-stranded DNA, one strand shown
Matrix: in vitro
Concentration: not given
Setting: 8-mer, flanks averaged, mean of 2 arrays, mostly near background
Baseline: not given
Reading: higher = stronger binding
Target sequence (chain): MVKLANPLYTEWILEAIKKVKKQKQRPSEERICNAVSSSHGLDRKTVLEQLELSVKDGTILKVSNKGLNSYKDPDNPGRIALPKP
| Strand | E-score |
| --- | --- |
| AGCACGTC | -0.0758 |
| GTAGCTAA | -0.141 |
| ATTGATGC | 0.0102 |
| ATAGTCAA | -0.122 |
| AACTAAGG | -0.0868 |
| CTAAATCA | -0.113 |
| ACCCATTG | -0.0721 |
| CTTTGGTA | 0.0262 |
| AGCGACGC | 0.353 |
| CCTTCTCA | -0.151 |
| AAACCAGC | -0.00774 |
| AGTCTCCA | -0.276 |
| GTGGAACA | -0.0288 |
| ACCGACAG | 0.206 |
| TGATTGAA | -0.111 |
| TGATACCA | -0.148 |
| GGTGTTAA | 0.0211 |
| CAAAACGG | 0.151 |
| CCGATGTC | -0.0431 |
| AGCGGTCC | 0.196 |
| CGCGTTTC | 0.337 |
| AGGGAGTA | -0.0822 |
| CCGAGCGA | 0.23 |
| ATGTCGGG | 0.218 |
| ACTCTGCT | -0.303 |

For quick reference, copied from above (series 3):
| Strand | fitted relative affinity [z-score] |
| --- | --- |
| TTAGATATCAGATTGGATTAGTGCTAG | -0.243 |
| GGATGACTCCCTCTCTGGCCGTGCTAG | 0.0938 |
| GACGGACTGCCTCTCCTGACGTGCTAG | -0.338 |
| TTAGGTTTGCTACTGCTTTAGTGCTAG | -0.225 |
| TCACTTCTAGACTTCTCACTGTGCTAG | 0.751 |
